Measurements gathered from unrelated publications.
Each line is one published result; not all experiments were run side by side. ± gives the spread as reported.
rep main protease: Replicase polyprotein 1ab, main protease (rep, Severe acute respiratory syndrome-related coronavirus, UniProt P0C6X7)
rep papain-like protease: Replicase polyprotein 1ab, papain-like protease (rep, Severe acute respiratory syndrome-related coronavirus, UniProt P0C6X7)

| SMILES | target | test | system | conditions | measurement | value |
| --- | --- | --- | --- | --- | --- | --- |
| CCC[C@H](NC(=O)[C@H](CC(C)C)NC(=O)OCc1ccccc1)C(=O)C(=O)NCc1ccccn1 | rep main protease | thermal stability |  |  | ΔTm | 2.41 °C |
| N#CC1=C(N)OC2=C(c3sc(N)c(C#N)c3CC2)C1c1ccccc1Cl (stereo not shown) | Replicase polyprotein 1ab, nsp14 (rep, Severe acute respiratory syndrome-related coronavirus, UniProt P0C6X7) |  |  | 50 µM | inhibition | 98.2 ± 6.51% |
| CSCC[C@@H](C=O)NC(=O)[C@H](CC(C)C)NC(=O)[C@H](CC(C)C)NC(C)=O | rep main protease | thermal stability |  |  | ΔTm | 2.88 °C |
| COc1cc2c3c(c4cc(OC)c(OC)cc4c2cc1OC)CN1CCCCC1C3 (stereo not shown) | rep main protease | enzyme activity |  | concentration not given | inhibition | no inhibition |
| CCOC(=O)/C=C/[C@H](C[C@@H]1CCNC1=O)NC(=O)[C@H](CC(C)C)NC(=O)[C@@H](NC(=O)O[C@H]1CCOC1)C(C)C | rep main protease | enzyme activity, inhibitor |  | 50 µM | inhibition | 76% |
| CC(C)(C)OC(=O)C[C@H](NC(=O)OCc1ccccc1)C(=O)CBr | rep main protease | isothermal titration calorimetry |  | pH 7.4, 25 °C, 2% DMSO | entropic contribution -TΔS | -6.7 kcal/mol |
| Oc1cc(O)cc(Oc2c(O)cc(O)cc2Oc2c(O)cc(O)cc2O)c1 | rep main protease |  | Vero | 200 µM | inhibition | 15% |
| Cc1ccc(N2CC3CC(C2)N3C)cc1C(=O)NC1(c2ccc3c4c(cccc24)C(=O)N3C)CC1 | rep papain-like protease | enzyme activity |  | 20 µM | inhibition | 106% |
| O=c1cc(-c2ccc(O)cc2)oc2c([C@@H]3OC[C@H](O)[C@H](O)[C@H]3O)c(O)c([C@@H]3O[C@H](CO)[C@@H](O)[C@H](O)[C@H]3O)c(O)c12 | rep papain-like protease | enzyme activity, inhibitor |  | 8 µM | inhibition | 53.1% |
| CC(C)CC(NC(=O)C(NC(=O)C(C)NC(=O)OCc1ccccc1)C(C)C)C(=O)NC(Cc1ccccc1)C(=O)C(F)(F)F (mixture of isomers) | rep main protease | inhibitor |  | concentration not given, prolonged incubation | Ki decrease | 30 fold |

Some of these lines once more:
| SMILES | target | test | system | conditions | measurement | value |
| --- | --- | --- | --- | --- | --- | --- |
| COc1cc2c3c(c4cc(OC)c(OC)cc4c2cc1OC)CN1CCCCC1C3 (stereo not shown) | rep main protease | enzyme activity |  | concentration not given | inhibition | no inhibition |
